Published values collected from several papers.
A part holds a random share of what one study measured.

Study 1
Target: Sal-like protein 4, full length isoform B (SALL4, Homo sapiens, UniProt Q9UJQ4-2, residues 1-616)
Method: universal PBM
Form: double-stranded DNA, one strand shown
Matrix: in vitro
Tested at: not given
Setting: 8-mer, flanks averaged, mean of replicates
Reading: higher = stronger binding
Endpoint: E-score
Sequence = CTGGTAAG; value = 0.0239
Sequence = CCACGGTC; value = -0.412
Sequence = AGCAGCTA; value = -0.104
Sequence = ATGGGATC; value = 0.147
Sequence = GCTACGAA; value = 0.0111
Sequence = CTGCCATC; value = -0.097
Sequence = GGGTACTA; value = 0.0761
Sequence = ACTTATTA; value = 0.394
Sequence = GCCACAAA; value = 0.0486
Sequence = ACTAGTAT; value = 0.194
Sequence = GCAGGCCC; value = -0.443
Sequence = GTTTGTCA; value = 0.0518
Sequence = CGGTGCGA; value = -0.273
Sequence = AGCAACTG; value = -0.0955
Sequence = GAGCTTCA; value = -0.0361
Sequence = CAGACAAC; value = -0.0683
Sequence = GCGGACTA; value = -0.0478
Sequence = CGAATCCA; value = -0.0653
Sequence = CGTGCTCC; value = -0.23
Sequence = AGGTGGAA; value = 0.132
Sequence = CGGTGTAA; value = -0.135
Sequence = CGGGCGTC; value = -0.215
Sequence = CCCCACGA; value = -0.195
Sequence = ATCGGTGC; value = -0.077
Sequence = GGCCTCTA; value = -0.267

Study 2
Target: RING finger protein unkempt homolog, zinc fingers 1-6, GST-SBP tag (UNK, Homo sapiens, UniProt Q9C0B0, residues 30-357)
Method: RNA Bind-n-Seq
Form: RNA
Matrix: in vitro
Tested at: not given
Setting: RNA with constant flanks, ends assumed
Baseline: input RNA pool
Reading: higher = stronger binding
Endpoint: bound/input enrichment
All sequences stand within: GGGAGUUCUACAGUCCGACGAUC … CAACAGAGGAUUGAGCAUCA
Construct (chain): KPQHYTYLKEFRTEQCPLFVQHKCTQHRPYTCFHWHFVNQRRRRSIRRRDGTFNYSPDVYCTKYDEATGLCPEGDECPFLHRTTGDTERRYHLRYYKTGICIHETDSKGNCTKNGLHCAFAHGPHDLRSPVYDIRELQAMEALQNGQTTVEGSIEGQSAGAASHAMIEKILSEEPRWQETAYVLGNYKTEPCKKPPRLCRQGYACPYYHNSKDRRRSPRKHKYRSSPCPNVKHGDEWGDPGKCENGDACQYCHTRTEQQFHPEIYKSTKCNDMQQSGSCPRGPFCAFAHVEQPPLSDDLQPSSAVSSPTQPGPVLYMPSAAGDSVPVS
Sequence = CAGUCAUGGAGAAAAACAUAUUAAAAUAAUUUCAUGGCAUUGAUGUUAAUUCUAGUCUAUCCGUUUUAUAAAAGUUAGGAUUCUUAUUUAGGAACAACAGGAAAUGACUGUUAAGGAGAA; value = 6.63 ratio
Sequence = ACCCCCAUGGUCCCUAUCUGUAGUCAGACUGUGCUGGCUGGGUCUCUGCAGGGAACCUGUUACCGCAGGUUUGUGGUGACCUUGGAGGGAGGGUCUGCCAGCAGAGAAUACAGUGCGCUU; value = 0.135 ratio
Sequence = UCCUUUGUCCUUGGAUUACUUAAGAGUUCCCAGAAAUACAUUUGCCACCAACAGAGCCGCCAAAUUUAUAAGGAAAAAUGAUUCCCAAUGGAUAUUUGAUGUUUGAGGAUGAAAAUUUUA; value = 0.512 ratio
Sequence = AUUAAUGAGGGCCUUAAAGCUGCUGACAACGACCCCACGGCGCCACCGUAUGACUCCCUCUCCGUCUUUGACUACGAGGGCAGCGGCUCCACGGCUGGCUCCUUGAGCUCCCUCAACUCC; value = 0.146 ratio
Sequence = UAUAUGAAGGUUAUAGAACGAGCGGCUUUUCCUCGGCGUCUCUGGGAACGGGUCCGGCUCCGUAAAAACUAUGAGAAAGCACUGGAGCAAAUAGAUGAAAAUCUGAUUUACUGGCCCCGU; value = 0.156 ratio
Sequence = CAGAGAAGGGAAGAAAGUGAUCCUGAAUAUCGGUCCAGCAAAUCAAAGCCAUUGACCCUAUCCGAAUAUAAUUUAACUAUGGACACUGCAAAGCUGUUUAUGUCCUGCCUUCACGCCUGG; value = 0.196 ratio
Sequence = UUUUCUUUUGGAGGUGGAUUAUUUGAUGACAUGUUUGAAGAUAUGGAGAAAAUGUUUUCUUUCCGUGGUUUUGACUCUACCAAUCAGCAUACAGUACAGACUGAAAAUAGAUUUCAUGGA; value = 0.339 ratio
Sequence = UCACAGGCAGGUUUAAUGGCCAGUUUAAAACUUAUGCUAUCUGCGGGGCCAUUCGCCGGAUGGUGAGUGUUUCCCUGGGCUUUGCUCAUCACUUCGGGACAUCGUGGACUUUACCGUGCG; value = 0.098 ratio
Sequence = GGAGGUCAGGUUCCUGACACAAACUACAUAUUUAUGGGUGAUUUUGUAGACAGAGGUUACUACCGUUUGGAGACCUUCACUUACCUUCUUGCAUUAAAGGCUAAAUGGCCUGAUCGUAUU; value = 0.289 ratio
Sequence = AGUUUGGGCUUUGGCUCUUACAUCAGUGAAGUAAAAGAAGUCUUACAAGAAUGCAAGACAGCCGCAUUAAAAAGAAGAAAGGCCAGUUCUCGUUUGGAAAACCUCGGCAUUCCUGAAGAG; value = 0.123 ratio
Sequence = GCUCCACCUGCCCCAGCUCUGCCCGGUGUGGAAGAAGCAAGUGUCCUAAGCACCUAACUCCCGUUUUGUUACAAGUAUAACUUAGGAGAAAAAAUUGGUAGAAAUAAUACAGUAUGUUGC; value = 19.9 ratio

Study 3
Target: Ras GTPase-activating protein-binding protein 1, C-terminal RGG region (G3BP1, Homo sapiens, UniProt Q13283)
Sequence of UniProt Q13283 (whole entry, looked up): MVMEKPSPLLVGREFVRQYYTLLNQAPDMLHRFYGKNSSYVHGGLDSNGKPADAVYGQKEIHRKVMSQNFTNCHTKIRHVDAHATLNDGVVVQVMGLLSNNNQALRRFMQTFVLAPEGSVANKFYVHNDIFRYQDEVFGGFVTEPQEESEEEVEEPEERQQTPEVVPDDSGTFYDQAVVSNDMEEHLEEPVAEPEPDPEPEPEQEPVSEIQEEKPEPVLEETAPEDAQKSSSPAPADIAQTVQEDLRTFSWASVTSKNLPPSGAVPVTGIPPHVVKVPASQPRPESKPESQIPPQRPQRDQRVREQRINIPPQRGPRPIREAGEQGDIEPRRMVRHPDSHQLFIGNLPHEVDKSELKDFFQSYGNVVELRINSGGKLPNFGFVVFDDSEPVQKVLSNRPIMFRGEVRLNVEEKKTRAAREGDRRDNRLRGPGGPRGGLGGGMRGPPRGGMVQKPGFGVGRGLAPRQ
Method: RNA Bind-n-Seq
Form: RNA
Matrix: in vitro
Tested at: 1 µM
Setting: whole 134-nt RNA, ends assumed
With: 150 mM KCl
Baseline: input library
Reading: higher = stronger binding
Endpoint: log2 enrichment
All sequences stand within: GGGAGUUCUACAGUCCGACGAUC … UGGAAUUCUCGGGUGUCAAGG
Sequence = UCCUGUGCUACACAUCGUAUGUACCGAAUCGGGAAAAAGGGAAAAAGGGAAAAAAAGGGAAAGUAUUAUGUUACGCCGUUCGGAUCUGCA; value = -0.798
Sequence = UAACUUUAGAGGAGGAUCUGAUGGAUAUGGCAGUGGACGGGGAUUUGGGGAUGGCUAUAAUGGGUAUGGAGGAGGACCUGGAGGUGGCAA; value = -0.69
Sequence = CUGUGCUACACAUCGUAUGUACCGAAUCGGUUUUUUUGGGGUUUUUUUGGGGUUUUUUUGGGAAAGUAUUAUGUUACGCCGUUCGGAUCU; value = -0.93
Sequence = AAGUCCUGUGCUACACAUCGUAUGUACCGAAUCGGAAAGGAAAAAAAGGAAAAAGGAAAGUAUUAUGUUACGCCGUUCGGAUCUGCACUU; value = -2.05
Sequence = UCAAGUCCUGUGCUACACAUCGUAUGUACCGAAUCGGGCCGGCCGGGGCCGGGGAAAGUAUUAUGUUACGCCGUUCGGAUCUGCACUUCC; value = -1.34
Sequence = GUCCUGUGCUACACAUCGUAUGUACCGAAUCAAAUUUUUAAACCCAAAUUUUUUUAAAAAAGUAUUAUGUUACGCCGUUCGGAUCUGCAC; value = -1.16
Sequence = AGUCCUGUGCUACACAUCGUAUGUACCGAAUCAAAUUUUUAAAUUUUUAAACCCAAAAAAGUAUUAUGUUACGCCGUUCGGAUCUGCACU; value = -1.04
Sequence = AAGUCCUGUGCUACACAUCGUAUGUACCGAAUCGGUUUUUGGUUUUUUUGGUUUGGAAAGUAUUAUGUUACGCCGUUCGGAUCUGCACUU; value = -1.67
Sequence = GCAGGAAGUAAAAACAAAUGGAAAUGCAAAGGAUAGUGGCAGGGGUGGGGGUUGCUAAGGAAAGGGUGGGAUGGGAGUGGGUAAAGAGUU; value = 1.61
Sequence = UAACUUUAGAGGAGGAUCUGAUGGAUAUGGCAGUGGACGUGGAUUUGGGGAUGGAUAUAAUGGGUAUGGAGGAGGACCUGGAGGUGGCAA; value = -0.798
Sequence = CACAGACAACACGCACCCACACAGACACAGAGGGAAGGGGUUGGGAUGGGGACAGGGUGCGCAGCAGGGCGGGGUAGGACCCCAGCCCCU; value = -0.486
Sequence = UCAAGUCCUGUGCUACACAUCGUAUGUACCGAAUCGGUUUUUGGAAAGGAAAGGAAAGUAUUAUGUUACGCCGUUCGGAUCUGCACUUCC; value = -1.35
Sequence = CCUGUGCUACACAUCGUAUGUACCGAAUCGGGGUUUUUUUGGGGUUUGGGGUUUUUGGGGAAAGUAUUAUGUUACGCCGUUCGGAUCUGC; value = 0.938
Sequence = CUGUGCUACACAUCGUAUGUACCGAAUCGGGGAAAAAAAGGAAAAAAAGGGGAAAAAAAGGGAAAGUAUUAUGUUACGCCGUUCGGAUCU; value = -1.22

Study 4
Target: RNA binding protein fox-1 homolog 2, RRM domain, GST-SBP tag (RBFOX2, Homo sapiens, UniProt O43251-10, residues 100-194)
Method: RNA Bind-n-Seq
Form: RNA
Matrix: in vitro
Tested at: 365 nM
Setting: natural RNA segment, single round, ends assumed
Baseline: no-protein control
Reading: higher = stronger binding
Endpoint: RBNS enrichment (R)
All sequences stand within: GGGAGUUCUACAGUCCGACGAUC … UGGAAUUCUCGGGUGCCAA
Residues (chain): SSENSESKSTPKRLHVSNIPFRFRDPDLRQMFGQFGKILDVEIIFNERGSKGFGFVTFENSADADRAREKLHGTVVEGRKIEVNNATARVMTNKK
Sequence = CCUUAAAGAGGGACAGGCUGAAGAGAGGGACAGGCACUCCAAACCUGUCUUGGGGCCACUUUCAGAGCCCCCAGCCCUGGGAACCACUCCCACCACAGGCAUAAGCUAUC; value = 0.272
Sequence = CCCCCAGCUCCACUGGCCCAAGUCUGAGCCUGGGGCCCUUGCUUUGAGGGGCCAGUCCGAGUUGGAUGGGACUGCCCUCAAGGAACAAGGCUAAUGUGUGUGUGUAUGUU; value = 1.91
Sequence = UUAGACUAAUCACUGGUGGAAAUUAAAUAUGGCAGUUAUGUUAGGUUUCCUAAUAUUUCAAAGGUUCCAAAGGAUCUAGAGCUCUCUAGUUACAUAGCAUUCAUAUAGGA; value = 0.669
Sequence = GGUUAUUGACCUCCUGGGUCCUACUCCACCCUAUCACCUACCCCCGUGACCCCCGGGAUCCCGCCGGUUUUUUCCCCUCCUGGGGGCUCAUGGGGGAGAAUUCCCAGCUC; value = 0.537
Sequence = AUGAAACCCGUAUAGUUCACAAUAGAGCUCAGGGAGCCCCUAACUCUUCCAAACCACAUGGGAGACAGUUUCCUUCAUGCCCAAGCCUGAGCUCAGAUCCAGCUUGCAAC; value = 0.29
Sequence = CAUCCUACAUUCUGACCUUCAAAGAGAAGUGAGCGCAUCCCAGAAACAGAGAUCAGAUGAAGAUAACAAGCCAGAUGCUGGUCCUGAUGCUGCCGGCAAGGAGAGUGCAG; value = 0.615
Sequence = CAUAUUUGCCUCCUUAUAUAUAUCAAAGACCAAGGUAUUUCCUUCUGCUUCAAAAGAACAAAAUUGGGAAAGAAAACUCACUUGAGUCUUGAUCAAACAAGUGUCUUUUA; value = 0.581
Sequence = UGUGGAUGCAUGGCUAUCGCCCUGAACAGUCCCUGCAGCUACUUGUGUUAACACAGAACUGAUGUUUAGCAUUCUGCCGCUUUCGUAUUUAUGUAACAAUUCCUUAAAGC; value = 0.53
Sequence = CAGCCUGUCCUGGCUGCUCACCUCCCCGCAGGGCACCGGGCCUUUCCUGCCCUCUGUGGUCAUCUGCCACCUGCUGGAUCAAGUGCUUUCUCUUUUACACUCCCCUGUCC; value = 0.383
Sequence = GACAUUUAUUACAAUGAGCUGCUGCACUCCUACUUUUAUAAAUUUUACUAACAAGUAGACUAAUGUAGACAUUCACAGACGGGAUAGCGCAGAAGCAUCUUCACACGACA; value = 1.05
Sequence = CAAGCCCUCCUCUGUGUCCAGUAAAUAAUGCUUAUCCCAAGGGGCCCGUCUCCCAGGGCAUUUCCCCCUCCCGUGCACAGCCAUUGGUGGCAAAUCCUUCUGCCAUCAGC; value = 0.506
Sequence = CUCUCUCAUGUGGUCUCUUAAUCCAGUAAUUGUAUUACUGCCAUUAAAGGAUGCAGUUAUUUUAAACAGUCUGUGAGUCUAGUCUCAUCUCUGCCCUGUCAGGGAACAAA; value = 0.239
